# Assay results of several laboratories.
# ± gives the spread as reported.
Structure (SMILES),cell line,assay,conditions,how to read,measurement,value
CN1C(=O)C2(Cc3ccc(CC45SSC(CO)(C(=O)N4C)N(C)C5=O)cc3)SSC1(CO)C(=O)N2C (racemic),MCF7 cells,microarray,"600 nM, fold change at least 4.0, with: DFO 300 µM",baseline: DFO alone,number of up-regulated transcripts,40
C[P+](c1ccccc1)(c1ccccc1)c1ccccc1,SK-OV-3,"cell growth or viability, MTT",72 h,,GI50,> 250 µM
CC[C@H](C)[C@@H]([C@@H](CC(=O)N1CCC[C@H]1[C@H](OC)[C@@H](C)C(=O)NC(Cc1ccccc1)C(C)OC)OC)N(C)C(=O)[C@@H](NC(=O)[C@H]([C@@H](C)CC)N(C)C)C(C)C (stereo partly drawn),MDA-MB-231 cells,cytotoxicity,,baseline: MMAF EC50 over compound EC50,potency fold over MMAF,~170 fold
CC=C(C)C(=O)OC1C(O)C2OC(COC(=O)CCCCCCCCCC(CCCCC)OC3OC(C)C(OC(C)=O)C(O)C3O2)C1OC(=O)C=Cc1ccccc1 (stereo not drawn),Jurkat,,,baseline: IC50 MCF-10A over IC50 Jurkat,selectivity index,3.16
COC(=O)C1=CO[C@@H](OC(C)=O)[C@@H]2C(Cn3cc(C4(O)CCCC4)nn3)=CC[C@H]12,SK-N-SH,"neuroprotection, MTT","0.15 µM, 24 h, with: 250 µM H2O2",,viability,58.1 ± 1.1%
CC(ON(C(C)(C)C)C(C)(C)C)c1ccc(NC(=O)[C@@H](NC(=O)[C@@H]2CCCN2C(=O)[C@H](C)NC(=O)[C@H](C)NC(=O)CCC(=O)O)C(C)C)cc1 (stereo partly drawn),U87,"cell viability, PrestoBlue","48 h, with: HNE 0.68 µM",,LC50,~150 µM
C1=CCCC=CCC1.F[P-](F)(F)(F)(F)F.[Pt+][c]1ccccc1P(=Nc1ccccc1)(c1ccccc1)c1ccccc1,Jurkat,flow cytometry,"0.5 µM, 6 h",,dead cells,~100%
COC(=O)C1=CO[C@@H](O)[C@@H]2C(Cn3cc(C4(O)CCCCC4)nn3)=CC[C@H]12,SK-N-SH,"neuroprotection, MTT","0.3 µM, 24 h, with: 250 µM H2O2",,viability,79.2 ± 1%
Nc1ccc(CCNc2c(NC3CCN(Cc4ccccc4)CC3)c(=O)c2=O)cc1,SH-SY5Y,"neuroprotection, MTT","12.5 µM, 24 h pretreatment, with: H2O2 650 µM for 4 h",,cell survival,60.3%
COC(=O)C1=CO[C@@H](OC(C)=O)[C@@H]2C(Cn3cc(COCc4ccc(OC)cc4)nn3)=CC[C@H]12,SK-N-SH,"neuroprotection, MTT","0.6 µM, 24 h, with: 250 µM H2O2",,viability,69.5 ± 0.2%
COc1ccc(Nc2c3c(nc4ccccc24)CCCC3)cc1,SH-SY5Y,MTT,"50 µM, 1 h pretreatment, 10% FBS, with: H2O2",,viability,47.7 ± 2.63%
COC(=O)C1=CO[C@@H](O)[C@@H]2C(Cn3cc(-c4ccc(F)cc4)nn3)=CC[C@H]12,SK-N-SH,"neuroprotection, MTT","0.3 µM, 24 h, with: 250 µM H2O2",,viability,55.9 ± 1.1%
CC/C=C\C/C=C\C/C=C\C/C=C\C/C=C\C/C=C\CCC(=O)Nc1ccn(C2OC(CO)C(O)C2(F)F)c(=O)n1 (stereo not drawn),SNB-19,NCI60 screen,,,CC50,61.9 µM
COC(=O)C1=CO[C@@H](O)[C@@H]2C(Cn3cc(C(O)(c4ccccc4)c4ccccc4)nn3)=CC[C@H]12,SK-N-SH,"neuroprotection, MTT","0.15 µM, 24 h, with: 250 µM H2O2",,viability,80.9 ± 3%
CC1=CCC23OC2(C)CCC2C(C[N+](C)(C)C)C(=O)OC2C13.[I-] (stereo not drawn),UACC-62,"cell growth or viability, SRB",8.3 µM,,inhibition,63.8%

# Repeated from above:
Structure (SMILES),cell line,assay,conditions,how to read,measurement,value
CC=C(C)C(=O)OC1C(O)C2OC(COC(=O)CCCCCCCCCC(CCCCC)OC3OC(C)C(OC(C)=O)C(O)C3O2)C1OC(=O)C=Cc1ccccc1 (stereo not drawn),Jurkat,,,baseline: IC50 MCF-10A over IC50 Jurkat,selectivity index,3.16
